{"data": "Results collected from several papers", "note": "Parts stem from different laboratories: compare values within a part only. Values joined by “and” are separate records of one study, mostly repeats; a detail may differ.", "chain of UniProt P07949 (whole entry, unmodified, looked up)": "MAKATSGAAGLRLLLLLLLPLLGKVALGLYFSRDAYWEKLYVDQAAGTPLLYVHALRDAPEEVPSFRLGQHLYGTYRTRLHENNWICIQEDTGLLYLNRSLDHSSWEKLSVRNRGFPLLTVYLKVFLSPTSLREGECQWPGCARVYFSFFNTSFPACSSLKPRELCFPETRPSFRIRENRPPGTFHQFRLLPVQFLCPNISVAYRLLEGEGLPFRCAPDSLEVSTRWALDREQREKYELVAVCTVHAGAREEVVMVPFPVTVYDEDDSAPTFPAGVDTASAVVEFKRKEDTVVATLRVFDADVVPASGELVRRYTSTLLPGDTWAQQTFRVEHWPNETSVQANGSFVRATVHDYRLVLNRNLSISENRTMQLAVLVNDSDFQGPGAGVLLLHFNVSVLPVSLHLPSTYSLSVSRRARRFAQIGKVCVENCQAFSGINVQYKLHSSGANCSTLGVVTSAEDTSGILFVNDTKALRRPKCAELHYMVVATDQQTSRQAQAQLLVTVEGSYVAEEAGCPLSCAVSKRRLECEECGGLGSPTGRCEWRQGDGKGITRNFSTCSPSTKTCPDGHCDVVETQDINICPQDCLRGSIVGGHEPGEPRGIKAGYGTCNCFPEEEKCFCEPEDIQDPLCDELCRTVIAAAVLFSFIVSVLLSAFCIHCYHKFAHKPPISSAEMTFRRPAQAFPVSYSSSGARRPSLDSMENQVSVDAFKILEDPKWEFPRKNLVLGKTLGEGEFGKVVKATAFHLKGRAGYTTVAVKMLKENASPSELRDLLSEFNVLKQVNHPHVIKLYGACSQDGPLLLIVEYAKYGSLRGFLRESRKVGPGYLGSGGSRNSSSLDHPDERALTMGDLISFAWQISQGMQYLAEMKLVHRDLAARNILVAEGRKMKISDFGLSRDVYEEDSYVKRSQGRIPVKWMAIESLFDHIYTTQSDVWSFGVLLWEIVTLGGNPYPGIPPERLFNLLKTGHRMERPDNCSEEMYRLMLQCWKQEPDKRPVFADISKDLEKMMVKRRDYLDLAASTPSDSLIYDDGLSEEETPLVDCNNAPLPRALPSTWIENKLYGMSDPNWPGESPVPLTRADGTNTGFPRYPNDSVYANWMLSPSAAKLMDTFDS", "chain of UniProt P53355 (whole entry, looked up)": "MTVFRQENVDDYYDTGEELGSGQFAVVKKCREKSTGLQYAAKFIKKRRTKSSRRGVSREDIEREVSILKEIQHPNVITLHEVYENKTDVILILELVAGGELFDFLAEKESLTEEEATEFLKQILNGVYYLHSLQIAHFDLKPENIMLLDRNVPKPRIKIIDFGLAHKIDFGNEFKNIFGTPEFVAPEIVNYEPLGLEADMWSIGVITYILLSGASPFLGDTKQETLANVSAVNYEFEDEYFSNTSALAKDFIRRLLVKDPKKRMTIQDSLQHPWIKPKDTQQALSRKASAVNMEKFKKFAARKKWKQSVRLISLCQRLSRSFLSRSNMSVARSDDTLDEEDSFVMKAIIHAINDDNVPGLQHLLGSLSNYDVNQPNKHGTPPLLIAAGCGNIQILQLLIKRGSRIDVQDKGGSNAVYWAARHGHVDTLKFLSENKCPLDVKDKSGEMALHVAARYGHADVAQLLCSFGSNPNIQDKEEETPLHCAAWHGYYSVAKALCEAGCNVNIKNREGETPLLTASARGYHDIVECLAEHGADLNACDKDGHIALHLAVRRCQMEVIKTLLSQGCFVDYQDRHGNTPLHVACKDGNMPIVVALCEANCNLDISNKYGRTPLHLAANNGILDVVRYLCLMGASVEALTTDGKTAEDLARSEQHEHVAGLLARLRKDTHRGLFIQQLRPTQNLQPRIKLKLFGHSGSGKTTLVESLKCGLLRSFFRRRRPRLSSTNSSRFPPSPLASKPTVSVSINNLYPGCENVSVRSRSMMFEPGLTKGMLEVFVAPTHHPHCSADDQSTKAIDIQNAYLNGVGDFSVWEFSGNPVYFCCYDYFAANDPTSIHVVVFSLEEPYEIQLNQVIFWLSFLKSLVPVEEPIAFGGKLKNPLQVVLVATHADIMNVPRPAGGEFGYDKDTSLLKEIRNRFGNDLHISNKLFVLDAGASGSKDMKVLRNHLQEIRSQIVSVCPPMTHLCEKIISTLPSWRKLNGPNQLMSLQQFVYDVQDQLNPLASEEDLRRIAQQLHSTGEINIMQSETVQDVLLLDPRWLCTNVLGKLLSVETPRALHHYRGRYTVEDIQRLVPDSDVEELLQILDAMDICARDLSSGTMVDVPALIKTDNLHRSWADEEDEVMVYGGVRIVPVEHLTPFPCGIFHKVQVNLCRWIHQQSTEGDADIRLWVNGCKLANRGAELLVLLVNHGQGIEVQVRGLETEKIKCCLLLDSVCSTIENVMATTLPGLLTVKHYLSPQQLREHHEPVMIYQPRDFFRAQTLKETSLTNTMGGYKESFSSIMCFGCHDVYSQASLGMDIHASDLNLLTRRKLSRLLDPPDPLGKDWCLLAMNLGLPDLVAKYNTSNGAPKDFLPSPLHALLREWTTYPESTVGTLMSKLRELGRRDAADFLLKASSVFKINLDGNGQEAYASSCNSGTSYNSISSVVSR", "chain of UniProt Q13557 (whole entry, looked up)": "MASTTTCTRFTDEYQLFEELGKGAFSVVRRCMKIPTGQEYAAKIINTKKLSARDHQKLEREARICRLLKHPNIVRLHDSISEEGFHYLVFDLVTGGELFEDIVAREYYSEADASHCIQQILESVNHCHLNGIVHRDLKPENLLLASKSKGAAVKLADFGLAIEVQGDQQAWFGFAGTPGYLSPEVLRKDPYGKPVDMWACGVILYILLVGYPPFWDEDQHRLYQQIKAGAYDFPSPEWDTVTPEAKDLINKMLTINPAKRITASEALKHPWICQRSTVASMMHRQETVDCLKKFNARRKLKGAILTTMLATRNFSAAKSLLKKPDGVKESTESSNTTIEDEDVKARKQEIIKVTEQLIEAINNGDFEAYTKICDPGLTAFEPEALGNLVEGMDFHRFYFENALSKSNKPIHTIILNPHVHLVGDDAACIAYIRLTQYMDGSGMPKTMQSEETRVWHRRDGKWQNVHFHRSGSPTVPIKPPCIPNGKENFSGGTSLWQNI", "chain of UniProt O94804 (whole entry, looked up)": "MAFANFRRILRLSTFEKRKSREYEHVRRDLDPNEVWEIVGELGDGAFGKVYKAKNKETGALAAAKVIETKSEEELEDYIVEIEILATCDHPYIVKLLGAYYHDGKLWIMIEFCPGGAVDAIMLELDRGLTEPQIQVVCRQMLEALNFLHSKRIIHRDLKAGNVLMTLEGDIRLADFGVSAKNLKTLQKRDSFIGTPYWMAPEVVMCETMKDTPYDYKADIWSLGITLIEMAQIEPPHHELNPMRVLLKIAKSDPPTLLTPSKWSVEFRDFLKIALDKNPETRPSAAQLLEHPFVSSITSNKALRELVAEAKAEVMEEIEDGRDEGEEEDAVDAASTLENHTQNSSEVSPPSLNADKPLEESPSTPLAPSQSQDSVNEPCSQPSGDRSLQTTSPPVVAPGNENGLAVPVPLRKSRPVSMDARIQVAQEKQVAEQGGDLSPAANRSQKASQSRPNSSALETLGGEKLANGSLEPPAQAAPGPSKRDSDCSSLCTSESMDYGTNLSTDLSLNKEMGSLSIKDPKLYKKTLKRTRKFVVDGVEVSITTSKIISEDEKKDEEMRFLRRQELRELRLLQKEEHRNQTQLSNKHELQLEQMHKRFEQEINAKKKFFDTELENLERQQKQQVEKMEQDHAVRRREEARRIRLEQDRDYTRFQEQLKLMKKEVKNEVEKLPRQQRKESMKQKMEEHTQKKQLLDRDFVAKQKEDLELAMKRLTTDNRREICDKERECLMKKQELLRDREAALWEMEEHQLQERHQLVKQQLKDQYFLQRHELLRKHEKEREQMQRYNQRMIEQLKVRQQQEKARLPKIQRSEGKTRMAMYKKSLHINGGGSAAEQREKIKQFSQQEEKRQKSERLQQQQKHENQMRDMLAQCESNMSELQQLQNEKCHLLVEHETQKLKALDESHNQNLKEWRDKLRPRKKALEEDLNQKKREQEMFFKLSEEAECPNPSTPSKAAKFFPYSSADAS", "chain of UniProt Q00535 (whole entry, looked up)": "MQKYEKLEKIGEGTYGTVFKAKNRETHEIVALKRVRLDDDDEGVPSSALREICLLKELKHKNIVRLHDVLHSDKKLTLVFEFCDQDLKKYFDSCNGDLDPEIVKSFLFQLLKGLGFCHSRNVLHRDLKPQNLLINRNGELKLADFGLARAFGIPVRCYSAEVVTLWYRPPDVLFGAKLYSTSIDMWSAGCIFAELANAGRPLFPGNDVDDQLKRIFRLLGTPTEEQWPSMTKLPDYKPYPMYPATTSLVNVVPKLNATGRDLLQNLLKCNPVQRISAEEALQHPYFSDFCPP", "chain of UniProt Q9P1W9 (whole entry, looked up)": "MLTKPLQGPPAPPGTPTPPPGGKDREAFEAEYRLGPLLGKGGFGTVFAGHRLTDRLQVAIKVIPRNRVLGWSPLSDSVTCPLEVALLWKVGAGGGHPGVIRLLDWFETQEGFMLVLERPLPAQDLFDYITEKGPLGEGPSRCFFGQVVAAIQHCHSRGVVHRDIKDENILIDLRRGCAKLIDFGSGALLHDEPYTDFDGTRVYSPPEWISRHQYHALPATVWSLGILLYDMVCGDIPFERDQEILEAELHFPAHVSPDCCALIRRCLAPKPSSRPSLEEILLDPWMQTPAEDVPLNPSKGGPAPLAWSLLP", "chain of UniProt P45984 (whole entry, looked up)": "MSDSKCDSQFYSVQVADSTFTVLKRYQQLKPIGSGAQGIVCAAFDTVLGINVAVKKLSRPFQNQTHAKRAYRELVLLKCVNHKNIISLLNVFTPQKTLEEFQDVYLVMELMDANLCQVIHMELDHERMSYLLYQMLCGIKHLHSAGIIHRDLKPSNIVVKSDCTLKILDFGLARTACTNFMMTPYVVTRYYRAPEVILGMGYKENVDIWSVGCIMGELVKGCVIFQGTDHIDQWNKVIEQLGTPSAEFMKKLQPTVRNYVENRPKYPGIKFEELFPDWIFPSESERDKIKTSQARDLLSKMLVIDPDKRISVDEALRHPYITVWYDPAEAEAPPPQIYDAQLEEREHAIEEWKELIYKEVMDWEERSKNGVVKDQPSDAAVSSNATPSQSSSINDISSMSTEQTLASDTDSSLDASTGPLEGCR"}
{"data": "Sample 1", "SMILES": "Cc1c(NC(=O)c2cc(C(N)=O)nc3cc(F)ccc23)c(C(F)(F)F)nn1Cc1ccc(C(C)(C)C)cc1", "concentration": "1 µM"}
{"target": "Serine/threonine-protein kinase 32B (STK32B, Homo sapiens, UniProt Q9NY57)", "assay": "cell-free assay, competition with immobilised ligand", "remaining binding": "100%"}
{"target": "Mast/stem cell growth factor receptor Kit (KIT, Homo sapiens, UniProt P10721, V559D)", "assay": "cell-free assay, competition with immobilised ligand", "remaining binding": "95%"}
{"target": "Serine/threonine-protein kinase BRSK2 (BRSK2, Homo sapiens, UniProt Q8IWQ3)", "assay": "cell-free assay, competition with immobilised ligand", "remaining binding": "100%"}
{"target": "Muscle, skeletal receptor tyrosine-protein kinase (MUSK, Homo sapiens, UniProt O15146)", "assay": "cell-free assay, competition with immobilised ligand", "remaining binding": "97%"}
{"target": "Insulin receptor (INSR, Homo sapiens, UniProt P06213)", "assay": "cell-free assay, competition with immobilised ligand", "remaining binding": "100%"}
{"target": "Platelet-derived growth factor receptor alpha (PDGFRA, Homo sapiens, UniProt P16234)", "assay": "cell-free assay, competition with immobilised ligand", "remaining binding": "100%"}
{"target": "Rhodopsin kinase GRK1 (GRK1, Homo sapiens, UniProt Q15835)", "assay": "cell-free assay, competition with immobilised ligand", "remaining binding": "83%"}
{"target": "Dual specificity tyrosine-phosphorylation-regulated kinase 2 (DYRK2, Homo sapiens, UniProt Q92630)", "assay": "cell-free assay, competition with immobilised ligand", "remaining binding": "88%"}
{"target": "Serine/threonine-protein kinase MRCK gamma (CDC42BPG, Homo sapiens, UniProt Q6DT37)", "assay": "competition binding", "remaining binding": "91%"}
{"target": "eIF-2-alpha kinase GCN2, C-terminal kinase domain (EIF2AK4, Homo sapiens, UniProt Q9P2K8, S808G)", "assay": "cell-free assay, competition with immobilised ligand", "remaining binding": "56%"}
{"target": "Protein kinase C theta type (PRKCQ, Homo sapiens, UniProt Q04759)", "assay": "cell-free assay, competition with immobilised ligand", "remaining binding": "91%"}
{"target": "Serine/threonine-protein kinase WNK1 (WNK1, Homo sapiens, UniProt Q9H4A3)", "assay": "cell-free assay, competition with immobilised ligand", "remaining binding": "100%"}
{"target": "Cyclin-dependent kinase-like 2 (CDKL2, Homo sapiens, UniProt Q92772)", "assay": "cell-free assay, competition with immobilised ligand", "remaining binding": "100%"}
{"target": "Cyclin-dependent kinase 18 (CDK18, Homo sapiens, UniProt Q07002)", "assay": "cell-free assay, competition with immobilised ligand", "remaining binding": "88%"}
{"target": "Phosphatidylinositol 4,5-bisphosphate 3-kinase catalytic subunit alpha isoform (PIK3CA, Homo sapiens, UniProt P42336, M1043I)", "assay": "cell-free assay, competition with immobilised ligand", "remaining binding": "80%"}
{"target": "Tyrosine-protein kinase ABL1, phosphorylated (ABL1, Homo sapiens, UniProt P00519, H396P)", "assay": "cell-free assay, competition with immobilised ligand", "remaining binding": "100%"}
{"target": "Cyclin-dependent kinase-like 3 (CDKL3, Homo sapiens, UniProt Q8IVW4)", "assay": "cell-free assay, competition with immobilised ligand", "remaining binding": "87%"}
{"target": "Myosin light chain kinase (MYLK3, Homo sapiens, UniProt Q32MK0)", "assay": "cell-free assay, competition with immobilised ligand", "remaining binding": "100%"}
{"target": "Tyrosine-protein kinase Fgr (FGR, Homo sapiens, UniProt P09769)", "assay": "cell-free assay, competition with immobilised ligand", "remaining binding": "96%"}
{"target": "Tyrosine-protein kinase FRK (FRK, Homo sapiens, UniProt P42685)", "assay": "cell-free assay, competition with immobilised ligand", "remaining binding": "90%"}
{"target": "NUAK family SNF1-like kinase 1 (NUAK1, Homo sapiens, UniProt O60285)", "assay": "cell-free assay, competition with immobilised ligand", "remaining binding": "94%"}
{"target": "Calcium/calmodulin-dependent protein kinase type II subunit gamma (CAMK2G, Homo sapiens, UniProt Q13555)", "assay": "cell-free assay, competition with immobilised ligand", "remaining binding": "82%"}
{"target": "Receptor-type tyrosine-protein kinase FLT3 (FLT3, Homo sapiens, UniProt P36888, F691L/ITD)", "assay": "cell-free assay, competition with immobilised ligand", "remaining binding": "100%"}
{"target": "Eukaryotic translation initiation factor 2-alpha kinase 1 (EIF2AK1, Homo sapiens, UniProt Q9BQI3)", "assay": "cell-free assay, competition with immobilised ligand", "remaining binding": "100%"}
{"target": "Phosphatidylinositol 4-phosphate 5-kinase type-1 gamma (PIP5K1C, Homo sapiens, UniProt O60331)", "assay": "cell-free assay, competition with immobilised ligand", "remaining binding": "78%"}
{"data": "Sample 2", "SMILES": "N#Cc1c(NC(=O)c2cccc3ccccc23)sc2c1CCCC2", "observed": "enzyme activity", "action": "inhibitor", "concentration": "0.5 µM", "relative to": "control"}
{"target": "Protein kinase C beta type, isoform beta-I (PRKCB, Homo sapiens, UniProt P05771)", "remaining activity [%]": 90.9}
{"target": "Tyrosine-protein kinase Lyn, isoform B (LYN, Homo sapiens, UniProt P07948)", "remaining activity [%]": 87}
{"target": "Cyclin-dependent kinase 5, with p25 (CDK5, Homo sapiens, UniProt Q00535)", "remaining activity [%]": 100}
{"target": "cAMP-dependent protein kinase catalytic subunit alpha (PRKACA, Homo sapiens, UniProt P17612)", "remaining activity [%]": 102}
{"target": "G protein-coupled receptor kinase 3 (GRK3, Homo sapiens, UniProt P35626)", "remaining activity [%]": 106}
{"target": "Cyclin-dependent kinase 4, with cyclin D1 (CDK4, Homo sapiens, UniProt P11802)", "remaining activity [%]": 98.7}
{"target": "Protein kinase C alpha type (PRKCA, Homo sapiens, UniProt P17252)", "remaining activity [%]": 99.5}
{"target": "Inhibitor of nuclear factor kappa-B kinase subunit beta (IKBKB, Homo sapiens, UniProt O14920)", "remaining activity [%]": 97}
{"target": "Mitogen-activated protein kinase kinase kinase 3 (MAP3K3, Homo sapiens, UniProt Q99759)", "remaining activity [%]": 99.8}
{"target": "Serine/threonine-protein kinase Nek2 (NEK2, Homo sapiens, UniProt P51955)", "remaining activity [%]": 88.1}
{"target": "Serine/threonine-protein kinase Chk2 (CHEK2, Homo sapiens, UniProt O96017)", "remaining activity [%]": 98.5}
{"target": "Mitogen-activated protein kinase 9 (MAPK9, Homo sapiens, UniProt P45984)", "remaining activity [%]": 33.9}
{"target": "Death-associated protein kinase 1 (DAPK1, Homo sapiens, UniProt P53355)", "remaining activity [%]": 109}
{"target": "STE20/SPS1-related proline-alanine-rich protein kinase (STK39, Homo sapiens, UniProt Q9UEW8)", "remaining activity [%]": 94.6}
{"target": "TGF-beta receptor type-1 (TGFBR1, Homo sapiens, UniProt P36897)", "remaining activity [%]": 101}
{"target": "TGF-beta receptor type-2 (TGFBR2, Homo sapiens, UniProt P37173)", "remaining activity [%]": 104}
{"target": "Serine/threonine-protein kinase 10 (STK10, Homo sapiens, UniProt O94804)", "remaining activity [%]": 97.7}
{"target": "Calcium/calmodulin-dependent protein kinase kinase 2 (CAMKK2, Homo sapiens, UniProt Q96RR4)", "remaining activity [%]": 80.4}
{"target": "Death-associated protein kinase 2 (DAPK2, Homo sapiens, UniProt Q9UIK4)", "remaining activity [%]": 105}
{"target": "Calcium/calmodulin-dependent protein kinase type II subunit delta (CAMK2D, Homo sapiens, UniProt Q13557)", "remaining activity [%]": 97.7}
{"target": "Serine/threonine-protein kinase OSR1 (OXSR1, Homo sapiens, UniProt O95747)", "remaining activity [%]": 103}
{"target": "Inhibitor of nuclear factor kappa-B kinase subunit epsilon (IKBKE, Homo sapiens, UniProt Q14164)", "remaining activity [%]": 94.3}
{"target": "cGMP-dependent protein kinase 1, isoform beta (PRKG1, Homo sapiens, UniProt Q13976)", "remaining activity [%]": 94.6}
{"data": "Sample 3", "SMILES": "COc1ccc2[nH]c3c4[nH]c5ccc(OC)cc5c4c4c(c3c2c1)C(=O)NC4=O", "observed": "binding", "concentration": "1 µM"}
{"target": "Proto-oncogene tyrosine-protein kinase receptor Ret (RET, Homo sapiens, UniProt P07949, V804M)", "remaining binding": "21%"}
{"target": "Ephrin type-B receptor 1 (EPHB1, Homo sapiens, UniProt P54762)", "assay": "competition with immobilised ligand", "remaining binding": "77%"}
{"target": "Serine/threonine-protein kinase ULK3 (ULK3, Homo sapiens, UniProt Q6PHR2)", "assay": "competition with immobilised ligand", "remaining binding": "43%"}
{"target": "Activin receptor type-1-like (ACVRL1, Homo sapiens, UniProt P37023)", "assay": "competition with immobilised ligand", "remaining binding": "100%"}
{"target": "Death-associated protein kinase 1 (DAPK1, Homo sapiens, UniProt P53355)", "remaining binding": "22%"}
{"target": "Mitogen-activated protein kinase 10 (MAPK10, Homo sapiens, UniProt P53779)", "remaining binding": "31%"}
{"target": "Proto-oncogene tyrosine-protein kinase receptor Ret (RET, Homo sapiens, UniProt P07949, V804L)", "remaining binding": "4.2%"}
{"target": "Serine/threonine-protein kinase Nek3 (NEK3, Homo sapiens, UniProt P51956)", "remaining binding": "67%"}
{"target": "Serine/threonine-protein kinase 38 (STK38, Homo sapiens, UniProt Q15208)", "remaining binding": "57%"}
{"target": "Serine/threonine-protein kinase pim-2 (PIM2, Homo sapiens, UniProt Q9P1W9)", "remaining binding": "0.5%"}
{"target": "Bone morphogenetic protein receptor type-1B (BMPR1B, Homo sapiens, UniProt O00238)", "assay": "competition with immobilised ligand", "remaining binding": "56%"}
{"target": "Serine/threonine-protein kinase RIO3 (RIOK3, Homo sapiens, UniProt O14730)", "remaining binding": "100%"}
{"target": "Vascular endothelial growth factor receptor 1 (FLT1, Homo sapiens, UniProt P17948)", "assay": "competition with immobilised ligand", "remaining binding": "79%"}
{"target": "Discoidin domain-containing receptor 2 (DDR2, Homo sapiens, UniProt Q16832)", "assay": "competition with immobilised ligand", "remaining binding": "72%"}
{"data": "Sample 4", "SMILES": "c1ccc(Oc2ccc(Nc3c4c(nc5ccccc35)CCC4)cc2)cc1", "organism": "Leishmania donovani", "observed": "parasite killing", "strain": "DD8"}
{"system": "intracellular amastigotes", "conditions": "20 µM, 96 h", "inhibition": "100%"}
{"system": "intracellular amastigotes", "conditions": "0.2 µM, 96 h", "inhibition": "33% and 22% and 24%"}
{"system": "intracellular amastigotes", "conditions": "2 µM, 96 h", "inhibition": "85% and 84% and 86%"}
{"system": "promastigotes", "conditions": "0.66 µM, 96 h", "inhibition": "59% and 52% and 60%"}
{"system": "intracellular amastigotes", "conditions": "0.4 µM, 72 h", "inhibition": "48% and 47% and 41%"}
{"system": "intracellular amastigotes", "conditions": "20 µM, 48 h", "inhibition": "100%"}
{"note": "Excerpt of the above (sample 2):"}
{"target": "Serine/threonine-protein kinase Nek2 (NEK2, Homo sapiens, UniProt P51955)", "remaining activity [%]": 88.1}
{"target": "Serine/threonine-protein kinase Chk2 (CHEK2, Homo sapiens, UniProt O96017)", "remaining activity [%]": 98.5}
{"target": "Mitogen-activated protein kinase 9 (MAPK9, Homo sapiens, UniProt P45984)", "remaining activity [%]": 33.9}
{"target": "Death-associated protein kinase 1 (DAPK1, Homo sapiens, UniProt P53355)", "remaining activity [%]": 109}
{"target": "STE20/SPS1-related proline-alanine-rich protein kinase (STK39, Homo sapiens, UniProt Q9UEW8)", "remaining activity [%]": 94.6}
{"target": "TGF-beta receptor type-1 (TGFBR1, Homo sapiens, UniProt P36897)", "remaining activity [%]": 101}
{"target": "TGF-beta receptor type-2 (TGFBR2, Homo sapiens, UniProt P37173)", "remaining activity [%]": 104}
{"target": "Serine/threonine-protein kinase 10 (STK10, Homo sapiens, UniProt O94804)", "remaining activity [%]": 97.7}
{"target": "Calcium/calmodulin-dependent protein kinase kinase 2 (CAMKK2, Homo sapiens, UniProt Q96RR4)", "remaining activity [%]": 80.4}
{"target": "Death-associated protein kinase 2 (DAPK2, Homo sapiens, UniProt Q9UIK4)", "remaining activity [%]": 105}
{"target": "Calcium/calmodulin-dependent protein kinase type II subunit delta (CAMK2D, Homo sapiens, UniProt Q13557)", "remaining activity [%]": 97.7}
